Published values pooled from the literature.
Parts stem from different laboratories: compare values within a part only.
Chain of UniProt Q99558 (whole entry, looked up): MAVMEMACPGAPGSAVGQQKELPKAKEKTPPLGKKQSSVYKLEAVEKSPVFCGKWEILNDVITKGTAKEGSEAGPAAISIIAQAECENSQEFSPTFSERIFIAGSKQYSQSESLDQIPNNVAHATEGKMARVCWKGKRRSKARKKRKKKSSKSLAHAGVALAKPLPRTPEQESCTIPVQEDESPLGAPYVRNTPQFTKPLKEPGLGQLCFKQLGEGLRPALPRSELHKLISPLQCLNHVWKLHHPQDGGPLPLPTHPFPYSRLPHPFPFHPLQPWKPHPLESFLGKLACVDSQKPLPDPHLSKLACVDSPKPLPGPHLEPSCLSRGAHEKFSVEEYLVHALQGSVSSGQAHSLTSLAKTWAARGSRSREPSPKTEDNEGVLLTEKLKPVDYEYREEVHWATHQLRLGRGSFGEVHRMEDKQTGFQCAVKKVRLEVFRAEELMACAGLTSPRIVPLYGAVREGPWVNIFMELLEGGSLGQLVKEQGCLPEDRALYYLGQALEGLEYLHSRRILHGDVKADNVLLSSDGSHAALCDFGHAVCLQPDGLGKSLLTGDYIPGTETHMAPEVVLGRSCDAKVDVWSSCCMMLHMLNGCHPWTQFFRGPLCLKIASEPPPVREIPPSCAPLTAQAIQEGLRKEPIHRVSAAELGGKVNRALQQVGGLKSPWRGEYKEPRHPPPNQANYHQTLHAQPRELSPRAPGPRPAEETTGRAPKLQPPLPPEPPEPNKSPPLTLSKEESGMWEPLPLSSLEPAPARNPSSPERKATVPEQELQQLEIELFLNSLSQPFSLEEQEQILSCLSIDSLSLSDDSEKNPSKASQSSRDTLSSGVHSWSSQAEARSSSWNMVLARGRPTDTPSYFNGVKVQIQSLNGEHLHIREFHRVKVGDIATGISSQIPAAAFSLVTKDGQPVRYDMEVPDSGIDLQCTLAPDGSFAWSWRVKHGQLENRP
Chain of UniProt O15197 (whole entry, looked up): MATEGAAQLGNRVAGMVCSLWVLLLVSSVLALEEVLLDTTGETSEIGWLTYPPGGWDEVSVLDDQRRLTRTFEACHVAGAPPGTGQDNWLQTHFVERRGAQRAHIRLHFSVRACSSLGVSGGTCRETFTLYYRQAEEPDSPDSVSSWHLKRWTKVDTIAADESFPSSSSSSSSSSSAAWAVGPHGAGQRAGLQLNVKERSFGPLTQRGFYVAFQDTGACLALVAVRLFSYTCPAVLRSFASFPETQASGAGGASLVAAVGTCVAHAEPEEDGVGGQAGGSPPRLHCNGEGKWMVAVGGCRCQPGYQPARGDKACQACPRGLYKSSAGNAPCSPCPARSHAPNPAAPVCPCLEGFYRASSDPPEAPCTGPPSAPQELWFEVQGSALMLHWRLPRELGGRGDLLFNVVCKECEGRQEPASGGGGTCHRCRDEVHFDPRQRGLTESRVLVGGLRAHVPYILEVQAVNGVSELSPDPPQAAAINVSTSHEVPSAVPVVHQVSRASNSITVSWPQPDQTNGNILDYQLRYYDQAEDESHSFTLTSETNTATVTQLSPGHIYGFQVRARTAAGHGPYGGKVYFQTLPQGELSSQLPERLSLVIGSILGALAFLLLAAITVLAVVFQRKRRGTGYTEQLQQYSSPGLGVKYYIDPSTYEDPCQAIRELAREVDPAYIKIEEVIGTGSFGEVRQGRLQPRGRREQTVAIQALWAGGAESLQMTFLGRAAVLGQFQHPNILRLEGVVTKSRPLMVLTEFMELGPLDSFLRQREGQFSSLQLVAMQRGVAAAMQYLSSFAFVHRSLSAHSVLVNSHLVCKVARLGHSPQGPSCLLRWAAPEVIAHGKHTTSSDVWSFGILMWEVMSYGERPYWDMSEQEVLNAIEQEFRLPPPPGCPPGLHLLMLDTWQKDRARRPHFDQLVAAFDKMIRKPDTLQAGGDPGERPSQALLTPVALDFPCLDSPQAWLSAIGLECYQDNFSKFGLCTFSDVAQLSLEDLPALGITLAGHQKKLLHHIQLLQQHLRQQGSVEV
Chain of UniProt P54760 (whole entry, looked up): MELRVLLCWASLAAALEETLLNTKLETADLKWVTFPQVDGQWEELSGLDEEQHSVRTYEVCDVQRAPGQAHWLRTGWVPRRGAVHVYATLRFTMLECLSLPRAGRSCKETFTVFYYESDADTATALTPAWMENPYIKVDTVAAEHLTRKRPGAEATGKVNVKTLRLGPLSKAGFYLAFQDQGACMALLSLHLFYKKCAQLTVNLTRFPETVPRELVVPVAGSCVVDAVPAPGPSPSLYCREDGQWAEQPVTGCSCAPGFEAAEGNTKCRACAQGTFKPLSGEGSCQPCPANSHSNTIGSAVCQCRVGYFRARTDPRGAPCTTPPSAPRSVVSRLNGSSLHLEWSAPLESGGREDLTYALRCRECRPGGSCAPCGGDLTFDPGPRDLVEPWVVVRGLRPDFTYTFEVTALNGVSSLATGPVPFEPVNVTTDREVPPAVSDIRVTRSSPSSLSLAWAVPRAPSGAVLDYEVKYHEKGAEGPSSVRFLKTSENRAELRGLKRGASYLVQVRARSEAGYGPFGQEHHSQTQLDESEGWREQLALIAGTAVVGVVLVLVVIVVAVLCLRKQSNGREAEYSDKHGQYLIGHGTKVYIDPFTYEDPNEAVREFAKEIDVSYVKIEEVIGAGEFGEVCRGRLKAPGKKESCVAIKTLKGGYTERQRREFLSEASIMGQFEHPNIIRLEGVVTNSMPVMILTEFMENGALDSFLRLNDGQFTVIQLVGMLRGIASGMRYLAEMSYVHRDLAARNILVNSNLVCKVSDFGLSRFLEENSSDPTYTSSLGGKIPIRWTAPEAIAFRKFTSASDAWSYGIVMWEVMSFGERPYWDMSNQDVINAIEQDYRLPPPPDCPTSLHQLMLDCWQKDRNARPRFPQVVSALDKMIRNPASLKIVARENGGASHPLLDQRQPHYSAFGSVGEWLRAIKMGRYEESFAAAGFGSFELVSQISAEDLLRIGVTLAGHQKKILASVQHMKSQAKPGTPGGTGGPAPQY
Chain of UniProt Q2M2I8 (whole entry, looked up): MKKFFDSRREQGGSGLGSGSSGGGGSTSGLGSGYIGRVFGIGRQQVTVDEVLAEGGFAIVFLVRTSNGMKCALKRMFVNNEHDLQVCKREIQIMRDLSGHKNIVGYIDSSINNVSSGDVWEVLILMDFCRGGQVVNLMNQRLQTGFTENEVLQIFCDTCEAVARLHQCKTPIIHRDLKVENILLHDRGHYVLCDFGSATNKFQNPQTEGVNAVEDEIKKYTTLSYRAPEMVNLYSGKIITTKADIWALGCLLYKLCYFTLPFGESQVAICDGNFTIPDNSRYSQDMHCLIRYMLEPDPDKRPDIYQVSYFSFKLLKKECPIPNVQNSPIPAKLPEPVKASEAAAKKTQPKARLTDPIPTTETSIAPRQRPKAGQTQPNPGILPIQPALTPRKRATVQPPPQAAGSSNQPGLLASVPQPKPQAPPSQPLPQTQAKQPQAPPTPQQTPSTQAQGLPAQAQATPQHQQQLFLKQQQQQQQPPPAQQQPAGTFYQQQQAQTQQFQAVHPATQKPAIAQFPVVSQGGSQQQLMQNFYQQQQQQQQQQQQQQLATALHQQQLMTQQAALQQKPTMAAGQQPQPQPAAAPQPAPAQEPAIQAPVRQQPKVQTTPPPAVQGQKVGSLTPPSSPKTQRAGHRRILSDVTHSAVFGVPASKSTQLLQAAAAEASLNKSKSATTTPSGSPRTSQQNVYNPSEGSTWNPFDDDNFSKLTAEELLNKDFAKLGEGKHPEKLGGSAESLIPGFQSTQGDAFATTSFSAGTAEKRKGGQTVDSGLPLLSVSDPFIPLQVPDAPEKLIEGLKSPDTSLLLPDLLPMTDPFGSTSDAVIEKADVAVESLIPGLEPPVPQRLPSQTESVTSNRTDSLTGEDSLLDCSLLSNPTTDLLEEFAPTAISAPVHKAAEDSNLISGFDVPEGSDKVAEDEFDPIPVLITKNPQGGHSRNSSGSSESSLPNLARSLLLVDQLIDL
Chain of UniProt Q14680 (whole entry, looked up): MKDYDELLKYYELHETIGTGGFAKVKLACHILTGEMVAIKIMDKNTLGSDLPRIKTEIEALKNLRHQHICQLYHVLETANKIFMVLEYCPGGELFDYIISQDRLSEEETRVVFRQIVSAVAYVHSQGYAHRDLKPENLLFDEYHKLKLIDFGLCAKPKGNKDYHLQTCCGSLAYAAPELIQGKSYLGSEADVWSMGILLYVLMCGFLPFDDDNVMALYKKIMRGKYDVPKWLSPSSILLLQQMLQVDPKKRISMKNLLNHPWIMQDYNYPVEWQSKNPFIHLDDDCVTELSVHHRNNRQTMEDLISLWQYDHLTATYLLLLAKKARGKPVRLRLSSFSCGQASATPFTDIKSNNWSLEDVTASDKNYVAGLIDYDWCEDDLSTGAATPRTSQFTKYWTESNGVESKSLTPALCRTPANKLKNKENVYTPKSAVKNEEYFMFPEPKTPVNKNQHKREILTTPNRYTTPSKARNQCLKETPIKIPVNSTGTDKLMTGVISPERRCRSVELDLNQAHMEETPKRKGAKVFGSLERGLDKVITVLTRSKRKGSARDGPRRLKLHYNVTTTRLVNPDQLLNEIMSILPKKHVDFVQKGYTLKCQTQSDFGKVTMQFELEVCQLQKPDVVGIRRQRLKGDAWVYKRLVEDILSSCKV
Chain of UniProt Q13188 (whole entry, looked up): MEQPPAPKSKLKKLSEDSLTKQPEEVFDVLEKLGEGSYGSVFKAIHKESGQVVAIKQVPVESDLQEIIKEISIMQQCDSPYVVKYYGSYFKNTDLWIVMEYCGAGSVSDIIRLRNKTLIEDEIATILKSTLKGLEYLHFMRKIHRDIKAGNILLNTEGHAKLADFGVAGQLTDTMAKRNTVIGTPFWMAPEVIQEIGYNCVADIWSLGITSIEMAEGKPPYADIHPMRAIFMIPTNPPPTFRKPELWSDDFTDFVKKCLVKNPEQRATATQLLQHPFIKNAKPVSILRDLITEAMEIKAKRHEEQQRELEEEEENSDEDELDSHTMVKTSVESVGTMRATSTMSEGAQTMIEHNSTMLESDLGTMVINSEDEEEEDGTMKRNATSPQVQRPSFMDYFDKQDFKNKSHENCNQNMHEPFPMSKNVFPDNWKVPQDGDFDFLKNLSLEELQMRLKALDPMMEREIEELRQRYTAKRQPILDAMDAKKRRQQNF

Block 1
Structure (SMILES): CNCc1ccccc1-c1csc([C@H](C)Nc2nc(C)nc3cc(OC)c(OC)cc23)c1
Concentration: 1 µM
| target | effect on | technique | remaining binding [%] |
| --- | --- | --- | --- |
| STK4 (Homo sapiens, UniProt Q13043) | cell-free assay | competition with immobilised ligand | 100 |
| AAK1 (Homo sapiens, UniProt Q2M2I8) | binding |  | 94 |
| CDK9 (Homo sapiens, UniProt P50750) | cell-free assay | competition with immobilised ligand | 100 |
| MAPK6 (Homo sapiens, UniProt Q16659) | cell-free assay | competition with immobilised ligand | 100 |
| FYN (Homo sapiens, UniProt P06241) | cell-free assay | competition with immobilised ligand | 100 |
| CAMK1 (Homo sapiens, UniProt Q14012) | cell-free assay | competition with immobilised ligand | 100 |
| EPHB4 (Homo sapiens, UniProt P54760) | cell-free assay | competition with immobilised ligand | 100 |
| Tyrosine-protein kinase JAK2, JH1 (JAK2, Homo sapiens, UniProt O60674) | cell-free assay | competition with immobilised ligand | 63 |
| NTRK1 (Homo sapiens, UniProt P04629) | cell-free assay | competition with immobilised ligand | 87 |
| TNNI3K (Homo sapiens, UniProt Q59H18) | cell-free assay | competition with immobilised ligand | 100 |
| MAP3K14 (Homo sapiens, UniProt Q99558) | cell-free assay | competition with immobilised ligand | 100 |
| EPHB6 (Homo sapiens, UniProt O15197) | cell-free assay | competition with immobilised ligand | 87 |
| STK3 (Homo sapiens, UniProt Q13188) | cell-free assay | competition with immobilised ligand | 89 |
| PIK3CA (Homo sapiens, UniProt P42336, C420R) | cell-free assay | competition with immobilised ligand | 97 |
| RAF1 (Homo sapiens, UniProt P04049) | cell-free assay | competition with immobilised ligand | 65 |

Block 2
Compound: CC(C)n1cnc(-c2ccc(F)cc2)c1-c1ncc(C(=O)Nc2ccc(N3CCN(C)CC3)cc2)[nH]1
Technique: Phase 2a trial
Species: idiopathic pulmonary fibrosis patients
| refers to | dose | setting | patients with adverse events |
| --- | --- | --- | --- |
| gamma-glutamyltransferase increased | 60 mg once daily | grade 1 maximum intensity | 0% |
| chest discomfort | 30 mg once daily | grade 1 maximum intensity | 0% |
| respiratory tract infection | dose not given | grade 5 maximum intensity, all arms | 0% |
| blood alkaline phosphatase increased | dose not given | grade 4 maximum intensity, all arms | 0% |
| neutrophil count increased | dose not given | grade 5 maximum intensity, all arms | 0% |
| urinary tract infection | 30 mg once daily | grade 2 maximum intensity | 0% |
| gamma-glutamyltransferase increased | 30 mg once daily | grade 5 maximum intensity | 0% |

Block 3
SMILES: Cc1cc(Nc2cc(N3CCN(C)CC3)nc(Sc3ccc(NC(=O)C4CC4)cc3)n2)[nH]n1
Effect on: enzyme activity
Action: inhibitor
Concentration: 0.5 µM
| target | relative to | remaining activity [%] |
| --- | --- | --- |
| ACVRL1 (Homo sapiens, UniProt P37023) | control | 99.5 |
| RPS6KB2 (Homo sapiens, UniProt Q9UBS0) | control | 94.4 |
| MELK (Homo sapiens, UniProt Q14680) | control | 53.4 |
| ABL2 (Homo sapiens, UniProt P42684) |  | 5.75 |

Block 4
Organism: Sarcocystis neurona
Effect on: parasite growth
Concentration: 10 µM
Time: 96 h
Setting: second screen
Relative to: untreated
| SMILES | log2 fold change |
| --- | --- |
| C=C1/C(=C\C=C2/CCC[C@]3(C)[C@@H]([C@H](C)/C=C/[C@@H](O)C4CC4)CC[C@@H]23)C[C@@H](O)C[C@@H]1O | 0.36 |
| CC(=O)OCC[N+](C)(C)C | 0.19 |
| CS(=O)(=O)c1ccc(-c2cc(Br)sc2-c2ccc(F)cc2)cc1 | -0.06 |
| CCCSc1ccc2nc(NC(=O)OC)[nH]c2c1 | 2.01 |
| COc1ccccc1N1CCN(CC(O)COc2cccc3ccccc23)CC1 (stereo not shown) | 0.45 |
| CCCC(=O)Nc1ccc(OCC(O)CNC(C)C)c(C(C)=O)c1 (stereo not shown) | 0.57 |
| CCC(=O)O[C@]1(C(=O)SCF)[C@H](C)C[C@H]2[C@@H]3C[C@H](F)C4=CC(=O)C=C[C@]4(C)[C@@]3(F)[C@@H](O)C[C@@]21C | 0.29 |
| CN(CCOc1ccc(CC2SC(=O)NC2=O)cc1)c1ccccn1 (stereo not shown) | -0.13 |
| O=C(O)COCCN1CCN(C(c2ccccc2)c2ccc(Cl)cc2)CC1 (stereo not shown) | 0.08 |
| O=C1CCC(N2C(=O)c3ccccc3C2=O)C(=O)N1 (stereo not shown) | 0.21 |
| CCN1CCN(c2cc3c(cc2F)c(=O)c(C(=O)O)cn3C2CC2)CC1 | 0.24 |

A few entries again (block 2):
| refers to | dose | setting | patients with adverse events |
| --- | --- | --- | --- |
| neutrophil count increased | dose not given | grade 5 maximum intensity, all arms | 0% |
| chest discomfort | 30 mg once daily | grade 1 maximum intensity | 0% |
| urinary tract infection | 30 mg once daily | grade 2 maximum intensity | 0% |
